# Published values collected from several papers.
# Lines come from different studies, so protocols differ. ± marks the error that the study gave.
# Organism: HIV-1
# Effect on: viral replication
Structure (SMILES),assay,system,setting,measurement,result
Cc1cc(C)cc(S(=O)(=O)c2c(C(=O)NCCNS(=O)(=O)c3ccc(Cl)cc3)[nH]c3ccc(Cl)cc23)c1,,"MT-4, IIIB",,EC50,13 ± 4.8 nM
C=C(C)[C@@H]1CC[C@]2(C(=O)OCOC)CC[C@]3(C)[C@H](CC[C@@H]4[C@@]5(C)CC[C@H](OCOC)C(C)(C)[C@@H]5CC[C@]43C)[C@@H]12,refers to: p24,"MT4, NL4-3",96 h,IC50,> 10000 nM
CN(C)CCCn1c(=O)c2ccc3c(=O)n(CCCN(C)C)c(=O)c4c5[nH]c6ccccc6[nH]c5c(c1=O)c2c34,LTR luciferase reporter,"TZM-bl, NL4-3",48 h,IC50,< 25 nM
C=C(C)[C@@H]1CC[C@]2(C(=O)N3CCC(CCCC(=O)NC)CC3)CC[C@]3(C)[C@H](CC[C@@H]4[C@@]5(C)CC[C@H](O)C(C)(C)[C@@H]5CC[C@]43C)[C@@H]12,refers to: p24,"MT4, NL4-3",96 h,IC50,> 10000 nM
CN(C)CCCn1c(=O)c2cc(Br)c3c(=O)n(CCCN(C)C)c(=O)c4c5[nH]c6ccccc6[nH]c5c(c1=O)c2c34,,"TZM-bl, NL4-3",range active at 80% cytotoxicity or less,therapeutic window,7.8 to 125 nM
C=C(C)[C@@H]1CC[C@]2(C(=O)OCOCCOC)CC[C@]3(C)[C@H](CC[C@@H]4[C@@]5(C)CC[C@H](OCOCCOC)C(C)(C)[C@@H]5CC[C@]43C)[C@@H]12,refers to: p24,"MT4, NL4-3",96 h,IC50,> 10000 nM
O=C1Nc2ccc(Cl)cc2[C@@](C#CC2CC2)(C(F)(F)F)O1,,"MT-4, IIIB",,EC50,3.8 ± 0.63 nM
CN(C)CCCn1c(=O)c2ccc3c(=O)n(CCCN(C)C)c(=O)c4c5[nH]c6cc([N+](=O)[O-])ccc6[nH]c5c(c1=O)c2c34,,"TZM-bl, NL4-3",range active at 80% cytotoxicity or less,therapeutic window,3.9 to 125 nM
O=c1ccn([C@H]2C=C[C@@H](CO)O2)c(=O)[nH]1,refers to: reverse transcriptase activity,"human PBM cells, LAI",,EC90,> 100000 nM
C[C@H](NP(=O)(OCCOCn1cnc2c(=O)[nH]c(N)nc21)Oc1ccccc1)C(=O)OCc1ccccc1 (stereo partly drawn),refers to: p24 antigen,"LAI.04, human tonsil tissue ex vivo",12 d,EC50,1000 ± 400 nM
C=C(C)[C@@H]1CC[C@]2(C(=O)OCCCCCC(=O)OCC)CC[C@]3(C)[C@H](CC[C@@H]4[C@@]5(C)CC[C@H](O)C(C)(C)[C@@H]5CC[C@]43C)[C@@H]12,refers to: p24,"MT4, NL4-3",96 h,IC50,> 10000 nM
Cc1cc(C)cc(S(=O)(=O)c2c(C(=O)NCCCCNS(=O)(=O)c3ccccc3)[nH]c3ccc(Cl)cc23)c1,,"MT-4, IIIB",,EC50,7.5 ± 1 nM
CN(C)c1ccc(Nc2c3ccc(NC(=O)CCN4CCCC4)cc3nc3cc(NC(=O)CCN4CCCC4)ccc23)cc1.Cl.Cl.Cl,,"TZM-bl, NL4-3",range active at 80% cytotoxicity or less,therapeutic window,3000 to 12000 nM
O=c1cc(-c2ccc(O)c(O)c2)oc2cc(O)cc(O)c12,,"TZM-bl, BaL, CCR5-tropic",48 h,IC50,4380 nM
CN(C)CCCn1c(=O)c2cc(Br)c3c(=O)n(CCCN(C)C)c(=O)c4c5[nH]c6ccc([N+](=O)[O-])cc6[nH]c5c(c1=O)c2c34,LTR luciferase reporter,"TZM-bl, NL4-3",48 h,IC50,< 25 nM
C=C(C)[C@@H]1CC[C@]2(C(=O)N3CCN(CCCC(=O)O)CC3)CC[C@]3(C)[C@H](CC[C@@H]4[C@@]5(C)CC[C@H](O)C(C)(C)[C@@H]5CC[C@]43C)[C@@H]12,refers to: p24,"MT4, NL4-3",96 h,IC50,> 10000 nM
COc1ccc(S(=O)(=O)NCCCNC(=O)c2[nH]c3ccc(Cl)cc3c2S(=O)(=O)c2cc(C)cc(C)c2)cc1,,"MT-4, IIIB",,EC50,37 ± 8.5 nM
C=C(C)[C@@H]1CC[C@]2(C(=O)O)CC[C@]3(C)[C@H](CC[C@@H]4[C@@]5(C)CC[C@H](OCOC)C(C)(C)[C@@H]5CC[C@]43C)[C@@H]12,refers to: p24,"MT4, NL4-3",96 h,IC50,> 10000 nM
Nc1ncnc2c1ncn2[C@H]1CC[C@@H](CO)O1,refers to: reverse transcriptase activity,"human PBM cells, LAI",,EC90,3800 nM
Cc1cc(C)cc(S(=O)(=O)c2c(C(=O)NCCCNS(=O)(=O)c3ccccc3F)[nH]c3ccc(Cl)cc23)c1,,"MT-4, IIIB",,EC50,15 ± 1.7 nM
C=C(C)[C@@H]1CC[C@]2(C(=O)OCOCCOC)CC[C@]3(C)[C@H](CC[C@@H]4[C@@]5(C)CC[C@H](O)C(C)(C)[C@@H]5CC[C@]43C)[C@@H]12,refers to: p24,"MT4, NL4-3",96 h,IC50,> 10000 nM
Cc1ccc(S(=O)(=O)NCCNC(=O)c2[nH]c3ccc(Cl)cc3c2S(=O)(=O)c2cc(C)cc(C)c2)cc1,,"MT-4, IIIB",,EC50,45 ± 7 nM
CN(C)CCCn1c(=O)c2cc(Br)c3c(=O)n(CCCN(C)C)c(=O)c4c5[nH]c6ccc(C(=O)O)cc6[nH]c5c(c1=O)c2c34,,"TZM-bl, NL4-3",range active at 80% cytotoxicity or less,therapeutic window,800 to 5000 nM
Cc1cc(C)cc(S(=O)(=O)c2c(C(=O)NCCCCCNS(=O)(=O)c3ccc([N+](=O)[O-])cc3)[nH]c3ccc(Cl)cc23)c1,,"MT-4, IIIB",,EC50,27 ± 7.9 nM
C=C(C)[C@@H]1CC[C@]2(C(=O)O)CC[C@]3(C)[C@H](CC[C@@H]4[C@@]5(C)CC[C@H](OCOCCOC)C(C)(C)[C@@H]5CC[C@]43C)[C@@H]12,refers to: p24,"MT4, NL4-3",96 h,IC50,> 10000 nM
Cc1cc(C)cc(S(=O)(=O)c2c(C(=O)NCCCCNS(=O)(=O)c3ccc(C#N)cc3)[nH]c3ccc(Cl)cc23)c1,,"MT-4, IIIB",,EC50,17 ± 10 nM
c1nc2c(NCc3cn(CCCNCCCNC4CCCCC4)nn3)nc(N3CCNCC3)nc2[nH]1,inhibitor,"TZM-bl, IIIB",,IC50,3.6 nM

# A few entries again:
Structure (SMILES),assay,system,setting,measurement,result
CN(C)CCCn1c(=O)c2ccc3c(=O)n(CCCN(C)C)c(=O)c4c5[nH]c6cc([N+](=O)[O-])ccc6[nH]c5c(c1=O)c2c34,,"TZM-bl, NL4-3",range active at 80% cytotoxicity or less,therapeutic window,3.9 to 125 nM
O=c1ccn([C@H]2C=C[C@@H](CO)O2)c(=O)[nH]1,refers to: reverse transcriptase activity,"human PBM cells, LAI",,EC90,> 100000 nM
